Experimental data from different studies.
Each line is one published result; not all experiments were run side by side.
Sample: plasma

| Structure (SMILES) | species | route | dose | time | notes | Tmax |
| --- | --- | --- | --- | --- | --- | --- |
| C[Si]1(C[C@H](CN)CC(=O)O)CCCC1 | male Sprague-Dawley rat | oral | 100 mg/kg |  | single dose | 0.67 h |
| CCc1cc(Nc2nc(-c3ccc(-n4cnc(C)c4)c(F)c3)cs2)c(C)cc1C | human, both sexes | oral | 100 mg | day 1 | multiple dose, geometric mean | 3.9 h |
| Cn1c(=O)oc2ccc(-c3ccc(CC(C#N)NC(=O)C4CNCCCO4)c(F)c3)cc21 (centres unmarked) | human |  | 10 mg once daily | day 28 | median | 1.5 h |
| C[Si](C)(C)C[C@H](CN)CC(=O)O | male Sprague-Dawley rat | oral | 100 mg/kg |  | single dose | 0.5 h |
| O=C(CCc1ccc(CNC(C(=O)OC2CCCC2)C2CCCCC2)cn1)NO (centres unmarked) | human | oral | 60 mg |  | single dose, median | 0.5 h |
| CCc1c2c(nc3ccc(O)cc13)-c1cc3c(c(=O)n1C2)COC(=O)[C@]3(O)CC | human patients | intravenous | 75 mg/m^2 of parent drug |  |  | 1.28 h |
| N#Cc1cnc2cc(OCC3CCNCC3)c(F)cc2c1Nc1cc(F)c(OCc2cccc(Cl)n2)cc1Cl | male Sprague-Dawley rat | oral | 30 mg/kg |  |  | 3 h |
| Cc1ccc(OCC(=O)N(Cc2cccs2)c2ccn[nH]2)cc1 | male Sprague-Dawley rat | oral | 100 mg/kg |  | single dose | 1 h |
